Measured values pooled from the literature.
Each numbered part is a random draw from the data of one study; scales do not carry over between parts.
Sequence of UniProt P10721 (whole entry, unmodified, looked up): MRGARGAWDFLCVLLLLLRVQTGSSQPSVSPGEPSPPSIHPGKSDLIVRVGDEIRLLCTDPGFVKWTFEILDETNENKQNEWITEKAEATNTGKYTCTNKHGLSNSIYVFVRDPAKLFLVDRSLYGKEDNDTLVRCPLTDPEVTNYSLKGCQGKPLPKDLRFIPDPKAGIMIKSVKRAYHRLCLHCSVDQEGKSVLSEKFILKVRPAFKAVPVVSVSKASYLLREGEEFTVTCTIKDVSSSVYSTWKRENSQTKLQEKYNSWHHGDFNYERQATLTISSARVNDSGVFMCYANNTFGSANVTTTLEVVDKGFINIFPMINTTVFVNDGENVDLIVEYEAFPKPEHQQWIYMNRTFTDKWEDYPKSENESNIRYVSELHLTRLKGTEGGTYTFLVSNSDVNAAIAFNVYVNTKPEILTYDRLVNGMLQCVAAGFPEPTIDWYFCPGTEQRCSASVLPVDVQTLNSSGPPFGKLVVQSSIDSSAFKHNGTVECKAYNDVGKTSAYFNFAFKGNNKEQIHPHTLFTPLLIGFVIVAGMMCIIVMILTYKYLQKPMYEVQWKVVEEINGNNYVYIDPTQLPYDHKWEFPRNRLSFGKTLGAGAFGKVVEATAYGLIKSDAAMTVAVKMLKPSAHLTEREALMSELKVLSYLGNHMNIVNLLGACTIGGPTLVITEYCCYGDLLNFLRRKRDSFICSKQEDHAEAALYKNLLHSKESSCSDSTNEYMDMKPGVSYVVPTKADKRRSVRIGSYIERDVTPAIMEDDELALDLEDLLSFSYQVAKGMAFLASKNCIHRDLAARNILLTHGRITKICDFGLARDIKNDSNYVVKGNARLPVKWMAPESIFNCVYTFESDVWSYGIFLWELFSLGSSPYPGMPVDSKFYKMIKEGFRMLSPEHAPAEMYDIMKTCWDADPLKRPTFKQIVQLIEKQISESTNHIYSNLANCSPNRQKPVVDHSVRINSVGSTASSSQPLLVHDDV
Sequence of UniProt Q15349 (whole entry, looked up): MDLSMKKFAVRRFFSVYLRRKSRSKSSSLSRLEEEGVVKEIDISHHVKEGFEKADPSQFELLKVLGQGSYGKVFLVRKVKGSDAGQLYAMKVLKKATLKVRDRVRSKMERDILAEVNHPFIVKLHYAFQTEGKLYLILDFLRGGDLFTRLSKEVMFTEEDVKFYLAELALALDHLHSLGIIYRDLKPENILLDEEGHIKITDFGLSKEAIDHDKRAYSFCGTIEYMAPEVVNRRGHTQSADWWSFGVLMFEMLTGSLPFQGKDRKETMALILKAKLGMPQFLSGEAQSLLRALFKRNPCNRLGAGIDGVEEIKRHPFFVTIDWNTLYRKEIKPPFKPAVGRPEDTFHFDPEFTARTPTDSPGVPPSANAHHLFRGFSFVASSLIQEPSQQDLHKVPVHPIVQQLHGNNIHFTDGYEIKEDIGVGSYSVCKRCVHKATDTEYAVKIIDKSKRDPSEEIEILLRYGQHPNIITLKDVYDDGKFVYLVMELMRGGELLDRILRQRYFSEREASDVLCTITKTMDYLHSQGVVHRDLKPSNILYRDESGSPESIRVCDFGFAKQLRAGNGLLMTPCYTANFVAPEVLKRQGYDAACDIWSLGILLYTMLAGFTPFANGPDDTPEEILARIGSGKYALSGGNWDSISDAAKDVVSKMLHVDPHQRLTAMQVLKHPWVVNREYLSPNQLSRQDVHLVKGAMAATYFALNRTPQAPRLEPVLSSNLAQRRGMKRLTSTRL
Sequence of UniProt P42336 (whole entry, unmodified, looked up): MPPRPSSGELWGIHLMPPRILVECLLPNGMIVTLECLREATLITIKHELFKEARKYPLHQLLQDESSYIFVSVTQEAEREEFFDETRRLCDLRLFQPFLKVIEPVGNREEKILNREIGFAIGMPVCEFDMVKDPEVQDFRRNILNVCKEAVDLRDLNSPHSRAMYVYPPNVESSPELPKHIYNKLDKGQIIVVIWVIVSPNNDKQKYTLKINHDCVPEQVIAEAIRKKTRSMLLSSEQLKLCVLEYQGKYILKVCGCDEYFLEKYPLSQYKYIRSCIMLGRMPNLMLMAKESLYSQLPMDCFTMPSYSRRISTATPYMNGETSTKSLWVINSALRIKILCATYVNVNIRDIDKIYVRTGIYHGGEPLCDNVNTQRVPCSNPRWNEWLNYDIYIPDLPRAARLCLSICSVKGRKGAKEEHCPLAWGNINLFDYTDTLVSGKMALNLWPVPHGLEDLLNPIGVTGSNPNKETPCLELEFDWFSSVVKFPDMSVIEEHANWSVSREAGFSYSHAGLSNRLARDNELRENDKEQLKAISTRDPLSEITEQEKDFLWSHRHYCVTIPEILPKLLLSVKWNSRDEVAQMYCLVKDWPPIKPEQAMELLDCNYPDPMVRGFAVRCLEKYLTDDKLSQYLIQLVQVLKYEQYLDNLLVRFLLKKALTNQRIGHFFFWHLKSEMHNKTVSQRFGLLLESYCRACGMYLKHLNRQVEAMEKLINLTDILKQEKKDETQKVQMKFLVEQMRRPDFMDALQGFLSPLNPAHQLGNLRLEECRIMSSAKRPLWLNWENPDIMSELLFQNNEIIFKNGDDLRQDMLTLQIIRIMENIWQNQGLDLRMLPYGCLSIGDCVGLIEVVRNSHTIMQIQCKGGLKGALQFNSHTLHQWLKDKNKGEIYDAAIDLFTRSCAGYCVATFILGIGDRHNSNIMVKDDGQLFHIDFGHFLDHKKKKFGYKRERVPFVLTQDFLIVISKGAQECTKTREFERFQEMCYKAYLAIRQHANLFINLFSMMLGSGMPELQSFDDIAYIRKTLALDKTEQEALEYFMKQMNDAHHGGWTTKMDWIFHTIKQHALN
Sequence of UniProt Q07912 (whole entry, looked up): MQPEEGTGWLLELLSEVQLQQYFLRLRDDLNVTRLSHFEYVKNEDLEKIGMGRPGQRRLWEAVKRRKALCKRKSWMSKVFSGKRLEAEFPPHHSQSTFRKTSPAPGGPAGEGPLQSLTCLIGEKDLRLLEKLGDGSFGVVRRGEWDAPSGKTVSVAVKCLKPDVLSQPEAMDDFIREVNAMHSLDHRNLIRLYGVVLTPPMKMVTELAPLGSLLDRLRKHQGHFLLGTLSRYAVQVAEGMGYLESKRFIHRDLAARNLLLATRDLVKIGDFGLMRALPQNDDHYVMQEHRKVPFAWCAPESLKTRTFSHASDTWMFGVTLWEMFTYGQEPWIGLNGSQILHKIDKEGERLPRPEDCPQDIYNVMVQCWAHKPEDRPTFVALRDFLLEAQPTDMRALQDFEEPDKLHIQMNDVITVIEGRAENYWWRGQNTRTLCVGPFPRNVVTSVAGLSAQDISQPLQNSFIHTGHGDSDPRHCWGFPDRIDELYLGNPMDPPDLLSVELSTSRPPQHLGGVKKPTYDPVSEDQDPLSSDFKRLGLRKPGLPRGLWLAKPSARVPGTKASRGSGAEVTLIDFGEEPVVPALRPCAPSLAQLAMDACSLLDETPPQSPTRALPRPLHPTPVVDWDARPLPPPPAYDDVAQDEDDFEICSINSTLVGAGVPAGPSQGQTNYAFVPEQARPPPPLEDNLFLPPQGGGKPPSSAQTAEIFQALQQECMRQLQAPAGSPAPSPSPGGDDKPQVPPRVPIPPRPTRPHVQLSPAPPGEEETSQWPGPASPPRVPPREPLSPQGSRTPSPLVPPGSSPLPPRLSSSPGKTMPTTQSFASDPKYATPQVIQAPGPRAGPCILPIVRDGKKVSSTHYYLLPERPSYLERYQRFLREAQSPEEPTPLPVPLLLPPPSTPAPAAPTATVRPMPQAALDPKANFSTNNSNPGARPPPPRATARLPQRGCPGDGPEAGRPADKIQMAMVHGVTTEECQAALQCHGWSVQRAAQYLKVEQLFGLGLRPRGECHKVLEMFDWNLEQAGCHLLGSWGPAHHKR
Sequence of UniProt P31749 (whole entry, looked up): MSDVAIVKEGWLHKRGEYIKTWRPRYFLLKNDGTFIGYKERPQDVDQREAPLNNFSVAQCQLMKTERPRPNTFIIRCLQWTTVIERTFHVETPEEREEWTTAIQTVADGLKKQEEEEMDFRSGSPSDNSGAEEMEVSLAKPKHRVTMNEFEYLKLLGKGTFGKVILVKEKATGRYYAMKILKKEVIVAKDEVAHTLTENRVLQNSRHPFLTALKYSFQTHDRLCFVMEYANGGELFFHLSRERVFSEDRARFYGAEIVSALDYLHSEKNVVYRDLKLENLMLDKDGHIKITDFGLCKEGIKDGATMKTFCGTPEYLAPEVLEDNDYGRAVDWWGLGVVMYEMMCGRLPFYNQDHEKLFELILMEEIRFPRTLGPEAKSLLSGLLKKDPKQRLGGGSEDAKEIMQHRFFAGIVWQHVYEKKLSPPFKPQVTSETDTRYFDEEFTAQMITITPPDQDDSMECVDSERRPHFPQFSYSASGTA

Set 1 — technique: PRP chromatography estimate; sample: 1,9-decadiene/PBS; pH: 7.4; measurement: logD
CC(C)C[C@@H]1NC(=O)[C@H](CC(C)C)NC(=O)[C@@H](CC(C)C)NC(=O)[C@H](C(C)C)NC(=O)[C@@H](Cc2cscn2)NC(=O)[C@@H](CC(C)C)NC(=O)[C@H](C)NC1=O: -0.347
CC(C)C[C@@H]1NC(=O)[C@H](C)NC(=O)[C@H](CCC(=O)N2CCCC2)NC(=O)[C@H](CC(C)C)NC(=O)[C@H](C(C)C)NC(=O)[C@H](CC(C)C)NC(=O)[C@@H](CC(C)C)NC1=O: -0.867
CCC[C@H]1NC(=O)CSC[C@@H](C(=O)OCC)N(C)C(=O)[C@H](CC(C)C)NC(=O)[C@@H](C)N(C)C(=O)[C@@H](CC(C)C)NC(=O)[C@H](C)N(C)C(=O)[C@@H]2CCCN2C(=O)[C@H](CC(C)C)NC(=O)CN(C)C1=O: -0.258
CC(C)C[C@@H]1NC(=O)[C@H](CC(C)C)NC(=O)[C@H](CC(C)C)NC(=O)[C@H](C(C)C)NC(=O)[C@H](C(C)C)NC(=O)[C@H](Cc2cscn2)NC(=O)[C@H](C)NC1=O: -0.474
CC(C)C[C@@H]1NC(=O)[C@H](C)NC(=O)[C@H](CCC(=O)N2CCCC2)NC(=O)[C@H](C)NC(=O)[C@H](CC(C)C)NC(=O)[C@H](CC(C)C)NC(=O)[C@H](CC(C)C)NC1=O: -1.86
CC(C)C[C@@H]1NC(=O)[C@H](CC(C)C)NC(=O)[C@@H](C(C)C)NC(=O)[C@H](Cc2cscn2)NC(=O)[C@@H](Cc2cscn2)NC(=O)[C@H](Cc2cscn2)NC(=O)[C@H](CCC(=O)N2CCCC2)NC1=O: -2.74
CC(C)C[C@@H]1NC(=O)[C@H](C(C)C)NC(=O)[C@H](Cc2cscn2)NC(=O)[C@@H](CC(C)C)NC(=O)[C@H](C(C)C)NC(=O)[C@H](CC(C)C)NC(=O)[C@@H](CC(C)C)NC1=O: 0.709
CC(C)C[C@@H]1NC(=O)[C@H](CC(C)C)NC(=O)[C@@H](CC(C)C)NC(=O)[C@H](CC(C)C)NC(=O)[C@@H](CCC(=O)N2CCCC2)NC(=O)[C@H](Cc2cscn2)NC(=O)[C@H](C)NC1=O: -1.45
CC(C)C[C@@H]1NC(=O)[C@H](C)NC(=O)[C@H](Cc2cscn2)NC(=O)[C@H](CCC(=O)N2CCCC2)NC(=O)[C@H](CC(C)C)NC(=O)[C@H](CC(C)C)NC(=O)[C@@H](CC(C)C)NC1=O: -1.4
CC(C)C[C@@H]1NC(=O)[C@H](C)NC(=O)[C@H](CC(C)C)NC(=O)[C@@H](CC(C)C)NC(=O)[C@H](CC(C)C)NC(=O)[C@H](C)NC(=O)[C@H](CCC(=O)N2CCCC2)NC1=O: -1.95
CC(C)C[C@@H]1NC(=O)[C@H](C(C)C)NC(=O)[C@H](CCC(=O)N2CCCC2)NC(=O)[C@H](CC(C)C)NC(=O)[C@@H](Cc2cscn2)NC(=O)[C@H](CC(C)C)NC(=O)[C@@H](CC(C)C)NC1=O: -0.595
CC(C)C[C@@H]1NC(=O)[C@H](C(C)C)NC(=O)[C@H](C)NC(=O)[C@@H](CC(C)C)NC(=O)[C@@H](CCC(=O)N2CCCC2)NC(=O)[C@H](CC(C)C)NC(=O)[C@@H](CC(C)C)NC1=O: -0.472

Set 2 — observed: enzyme activity; action: inhibitor; tested at: 10 µM; measurement: inhibition
Target: Calcium/calmodulin-dependent protein kinase type II subunit alpha (CAMK2A, Homo sapiens, UniProt Q9UQM7)
Sequence of UniProt Q9UQM7 (whole entry, looked up): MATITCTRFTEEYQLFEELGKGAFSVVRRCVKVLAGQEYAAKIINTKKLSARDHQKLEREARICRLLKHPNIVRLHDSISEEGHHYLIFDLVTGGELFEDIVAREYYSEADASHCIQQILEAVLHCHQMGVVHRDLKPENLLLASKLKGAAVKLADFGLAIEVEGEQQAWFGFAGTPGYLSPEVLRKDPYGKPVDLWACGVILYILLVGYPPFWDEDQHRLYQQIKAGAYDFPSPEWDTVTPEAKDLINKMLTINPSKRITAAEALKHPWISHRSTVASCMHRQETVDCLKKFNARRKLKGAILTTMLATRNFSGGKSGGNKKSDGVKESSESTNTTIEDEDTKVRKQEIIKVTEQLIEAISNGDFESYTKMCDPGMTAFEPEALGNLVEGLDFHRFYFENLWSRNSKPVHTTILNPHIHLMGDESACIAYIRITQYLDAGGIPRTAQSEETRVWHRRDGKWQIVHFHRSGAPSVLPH
Cc1oc(=O)oc1COC(=O)N1CC[C@@H](N2CC/C(=C\C3=C(C(=O)O)N4C(=O)[C@@H](NC(=O)/C(=N\O)c5nsc(N)n5)[C@H]4SC3)C2=O)C1: 2%
C[N+]1(C)CCC[C@H]1C(=O)[O-]: 40%
O=C(c1ccc(F)c(F)c1Nc1ccc(I)cc1F)N1CC(O)([C@@H]2CCCCN2)C1 (racemic): -0.09%
CCC(=O)NC[C@@H]1C[C@H]1c1cccc2c1CCO2: -2%
C[C@@H]1C[C@H]2[C@@H]3CCC4=CC(=O)C=C[C@]4(C)[C@@]3(F)[C@@H](O)C[C@]2(C)[C@@]1(O)C(=O)CO: -1%
CC1=C[C@]23C(=O)[C@@H](C=C(CO)[C@@H](O)[C@]2(O)[C@H]1O)[C@H]1[C@@H](C[C@H]3C)C1(C)C: -8%
O=C1/C(=C2\Nc3ccc(S(=O)(=O)O)cc3C2=O)Nc2ccc(S(=O)(=O)O)cc21: -6%
C/C=C/C#CC#C[C@@H](O)[C@@H](/C=C/CCCO)O[C@@H]1O[C@H](CO)[C@@H](O)[C@H](O)[C@H]1O: 24%
C[C@H](O)[C@H]1CC[C@H]2[C@@H]3CC[C@@H]4C[C@H](O)CC[C@]4(C)[C@H]3CC[C@]12C: 21%
OCc1ccc(O)cc1: -16%
O=C(O)COCCN1CCN([C@H](c2ccccc2)c2ccc(Cl)cc2)CC1: 3%

Set 3 — observed: cell-free assay; technique: competition with immobilised ligand; tested at: 1 µM; measurement: remaining binding
SMILES: O=C1NC(c2ccccn2)Sc2ccccc21 (stereo not shown)
SRMS (Homo sapiens, UniProt Q9H3Y6): 84%
Ribosomal protein S6 kinase alpha-2, C-terminal kinase domain (RPS6KA2, Homo sapiens, UniProt Q15349): 93%
MET (Homo sapiens, UniProt P08581): 68%
EGFR (Homo sapiens, UniProt P00533, del752-759): 92%
KIT (Homo sapiens, UniProt P10721, V559D/V654A): 87%
TNK1 (Homo sapiens, UniProt Q13470): 55%
CIT (Homo sapiens, UniProt O14578): 96%
STK4 (Homo sapiens, UniProt Q13043): 81%
RIPK1 (Homo sapiens, UniProt Q13546): 81%
MAP3K11 (Homo sapiens, UniProt Q16584): 94%
AKT1 (Homo sapiens, UniProt P31749): 89%
TNK2 (Homo sapiens, UniProt Q07912): 100%
Ribosomal protein S6 kinase alpha-4, C-terminal kinase domain (RPS6KA4, Homo sapiens, UniProt O75676): 74%
FGFR4 (Homo sapiens, UniProt P22455): 89%
SBK3 (Homo sapiens, UniProt P0C264): 86%
STK38 (Homo sapiens, UniProt Q15208): 76%
Tyrosine-protein kinase ABL1, phosphorylated (ABL1, Homo sapiens, UniProt P00519, Q252H): 73%
EGFR (Homo sapiens, UniProt P00533, L861Q): 77%
PLK2 (Homo sapiens, UniProt Q9NYY3): 97%
MAP2K7 (Homo sapiens, UniProt O14733): 87%
MAP4K5 (Homo sapiens, UniProt Q9Y4K4): 100%
PIK3CA (Homo sapiens, UniProt P42336, H1047Y): 67%
KIT (Homo sapiens, UniProt P10721, A829P): 98%
TNIK (Homo sapiens, UniProt Q9UKE5): 100%
PIK3C2B (Homo sapiens, UniProt O00750): 86%

Set 4 — action: inhibitor; tested at: 10 µM; reference: control; measurement: remaining activity
Target: Diamine acetyltransferase 1 (Homo sapiens, UniProt P21673)
Residues (P21673 1-171): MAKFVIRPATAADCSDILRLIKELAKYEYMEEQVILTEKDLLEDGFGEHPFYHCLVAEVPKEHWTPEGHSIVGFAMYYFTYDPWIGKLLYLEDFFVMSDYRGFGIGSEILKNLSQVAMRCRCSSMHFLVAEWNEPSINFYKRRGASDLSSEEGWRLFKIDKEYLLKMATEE
CCOC(=O)C(C)=O: 101%
C[C@H](CC[C@@]1(O)O[C@H]2C[C@H]3[C@@H]4CC=C5C[C@@H](O[C@@H]6O[C@H](CO)[C@@H](O[C@@H]7O[C@@H](C)[C@H](O)[C@@H](O)[C@H]7O)[C@H](O)[C@H]6O[C@@H]6O[C@@H](C)[C@H](O)[C@@H](O)[C@H]6O)CC[C@]5(C)[C@H]4CC[C@]3(C)[C@H]2[C@@H]1C)CO[C@@H]1O[C@H](CO)[C@@H](O)[C@H](O)[C@H]1O: 104%
CC(=O)OC[C@@H](COC(=O)/C=C/c1ccc(O)cc1)OC1OC(CO)C(O)C(O)C1O (stereo partly shown): 78.2%
CCC/C=C1\OC(=O)C2=C1CC[C@H]1[C@H]3C=C4C(=O)O/C(=C\CCC)[C@@]4(CC3)[C@@H]21: 92.5%
CC1(C)CC[C@]2(C(=O)O)[C@H](O)C[C@]3(C)C(=CC[C@@H]4[C@@]5(C)C[C@H](O)[C@H](O)C(CO)(CO)[C@@H]5CC[C@]43C)[C@@H]2C1: 110%
COc1cc(/C=C/C(=O)OC[C@H]2O[C@@H](O[C@@H]3[C@@H](O)[C@H](O)[C@@H](CO)O[C@H]3c3c(OC)cc4oc(-c5ccc(O)cc5)cc(=O)c4c3O)[C@H](O)[C@@H](O)[C@@H]2O)ccc1O: 63.2%
OC[C@H]1NC[C@H](O)[C@@H](O)[C@@H]1O: 76.3%

A few entries again (set 1):
CC(C)C[C@@H]1NC(=O)[C@H](CC(C)C)NC(=O)[C@@H](C(C)C)NC(=O)[C@H](Cc2cscn2)NC(=O)[C@@H](Cc2cscn2)NC(=O)[C@H](Cc2cscn2)NC(=O)[C@H](CCC(=O)N2CCCC2)NC1=O: -2.74
CC(C)C[C@@H]1NC(=O)[C@H](C(C)C)NC(=O)[C@H](Cc2cscn2)NC(=O)[C@@H](CC(C)C)NC(=O)[C@H](C(C)C)NC(=O)[C@H](CC(C)C)NC(=O)[C@@H](CC(C)C)NC1=O: 0.709
CC(C)C[C@@H]1NC(=O)[C@H](CC(C)C)NC(=O)[C@@H](CC(C)C)NC(=O)[C@H](CC(C)C)NC(=O)[C@@H](CCC(=O)N2CCCC2)NC(=O)[C@H](Cc2cscn2)NC(=O)[C@H](C)NC1=O: -1.45
CC(C)C[C@@H]1NC(=O)[C@H](C)NC(=O)[C@H](Cc2cscn2)NC(=O)[C@H](CCC(=O)N2CCCC2)NC(=O)[C@H](CC(C)C)NC(=O)[C@H](CC(C)C)NC(=O)[C@@H](CC(C)C)NC1=O: -1.4
CC(C)C[C@@H]1NC(=O)[C@H](C)NC(=O)[C@H](CC(C)C)NC(=O)[C@@H](CC(C)C)NC(=O)[C@H](CC(C)C)NC(=O)[C@H](C)NC(=O)[C@H](CCC(=O)N2CCCC2)NC1=O: -1.95
CC(C)C[C@@H]1NC(=O)[C@H](C(C)C)NC(=O)[C@H](CCC(=O)N2CCCC2)NC(=O)[C@H](CC(C)C)NC(=O)[C@@H](Cc2cscn2)NC(=O)[C@H](CC(C)C)NC(=O)[C@@H](CC(C)C)NC1=O: -0.595
CC(C)C[C@@H]1NC(=O)[C@H](C(C)C)NC(=O)[C@H](C)NC(=O)[C@@H](CC(C)C)NC(=O)[C@@H](CCC(=O)N2CCCC2)NC(=O)[C@H](CC(C)C)NC(=O)[C@@H](CC(C)C)NC1=O: -0.472
